Assay results collected from several papers.
A part holds a random share of what one study measured. Substitutions count along the parent as printed.
Chain of UniProt Q8NI60 (whole entry, looked up): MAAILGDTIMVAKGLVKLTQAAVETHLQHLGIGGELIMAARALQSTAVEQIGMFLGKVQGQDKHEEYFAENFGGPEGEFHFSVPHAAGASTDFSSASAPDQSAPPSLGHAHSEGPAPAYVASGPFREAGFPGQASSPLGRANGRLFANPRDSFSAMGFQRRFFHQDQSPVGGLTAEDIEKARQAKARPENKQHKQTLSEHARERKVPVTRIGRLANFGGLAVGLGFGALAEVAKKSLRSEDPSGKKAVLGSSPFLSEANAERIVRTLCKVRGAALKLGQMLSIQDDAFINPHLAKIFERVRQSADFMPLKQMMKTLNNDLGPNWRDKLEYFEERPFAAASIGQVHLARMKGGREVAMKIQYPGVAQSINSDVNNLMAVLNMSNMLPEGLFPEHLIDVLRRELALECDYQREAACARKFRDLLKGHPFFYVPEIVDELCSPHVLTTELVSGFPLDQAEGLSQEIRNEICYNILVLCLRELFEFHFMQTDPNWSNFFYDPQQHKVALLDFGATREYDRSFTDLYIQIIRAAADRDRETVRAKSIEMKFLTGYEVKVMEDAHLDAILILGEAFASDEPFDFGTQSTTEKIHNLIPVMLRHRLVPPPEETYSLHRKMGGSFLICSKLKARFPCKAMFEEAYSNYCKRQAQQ
Chain of UniProt Q04759 (whole entry, looked up): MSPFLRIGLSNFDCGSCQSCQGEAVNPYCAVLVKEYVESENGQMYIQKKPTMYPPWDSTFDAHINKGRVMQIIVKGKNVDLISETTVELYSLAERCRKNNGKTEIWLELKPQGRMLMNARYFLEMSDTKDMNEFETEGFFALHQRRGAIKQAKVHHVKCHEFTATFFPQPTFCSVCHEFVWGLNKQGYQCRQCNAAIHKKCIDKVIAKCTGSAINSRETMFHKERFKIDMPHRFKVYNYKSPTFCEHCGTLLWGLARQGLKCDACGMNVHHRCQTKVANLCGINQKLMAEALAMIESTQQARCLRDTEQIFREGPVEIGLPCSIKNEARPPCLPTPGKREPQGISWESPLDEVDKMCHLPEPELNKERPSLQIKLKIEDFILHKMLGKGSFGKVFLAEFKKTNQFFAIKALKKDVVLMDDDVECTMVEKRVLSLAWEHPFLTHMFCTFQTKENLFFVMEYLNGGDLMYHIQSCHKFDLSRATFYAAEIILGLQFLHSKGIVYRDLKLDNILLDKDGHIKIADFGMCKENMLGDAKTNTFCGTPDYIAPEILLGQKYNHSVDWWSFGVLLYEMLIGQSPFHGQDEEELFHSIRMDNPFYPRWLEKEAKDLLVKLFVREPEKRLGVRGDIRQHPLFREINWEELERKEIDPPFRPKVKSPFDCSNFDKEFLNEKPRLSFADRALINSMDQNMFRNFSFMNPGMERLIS
Chain of UniProt P10721 (whole entry, looked up): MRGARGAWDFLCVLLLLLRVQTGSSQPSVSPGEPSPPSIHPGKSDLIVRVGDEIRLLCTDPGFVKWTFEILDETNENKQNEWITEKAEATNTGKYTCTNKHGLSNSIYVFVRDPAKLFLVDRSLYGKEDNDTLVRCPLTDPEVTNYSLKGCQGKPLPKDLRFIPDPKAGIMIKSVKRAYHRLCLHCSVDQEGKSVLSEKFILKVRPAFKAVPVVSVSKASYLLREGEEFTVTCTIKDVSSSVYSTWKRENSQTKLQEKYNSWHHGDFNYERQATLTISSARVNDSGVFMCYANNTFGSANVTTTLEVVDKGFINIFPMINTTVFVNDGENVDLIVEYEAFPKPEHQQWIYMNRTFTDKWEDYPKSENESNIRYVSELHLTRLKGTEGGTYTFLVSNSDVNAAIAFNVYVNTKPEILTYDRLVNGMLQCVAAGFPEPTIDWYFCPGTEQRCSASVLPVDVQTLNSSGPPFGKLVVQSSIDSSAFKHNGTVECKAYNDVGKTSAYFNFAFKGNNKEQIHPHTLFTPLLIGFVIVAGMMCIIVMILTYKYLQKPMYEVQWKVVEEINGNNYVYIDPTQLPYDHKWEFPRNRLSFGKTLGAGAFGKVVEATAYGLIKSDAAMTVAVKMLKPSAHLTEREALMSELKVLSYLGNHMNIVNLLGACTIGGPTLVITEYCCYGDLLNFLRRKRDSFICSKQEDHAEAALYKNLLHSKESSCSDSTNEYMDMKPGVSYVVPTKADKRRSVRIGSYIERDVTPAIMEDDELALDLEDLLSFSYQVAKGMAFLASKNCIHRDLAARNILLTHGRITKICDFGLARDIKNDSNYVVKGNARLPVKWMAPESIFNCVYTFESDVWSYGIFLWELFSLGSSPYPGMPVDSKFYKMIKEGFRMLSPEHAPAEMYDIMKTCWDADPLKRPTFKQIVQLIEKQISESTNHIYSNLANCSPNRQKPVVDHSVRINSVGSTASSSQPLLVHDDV
Chain of UniProt Q13188 (whole entry, looked up): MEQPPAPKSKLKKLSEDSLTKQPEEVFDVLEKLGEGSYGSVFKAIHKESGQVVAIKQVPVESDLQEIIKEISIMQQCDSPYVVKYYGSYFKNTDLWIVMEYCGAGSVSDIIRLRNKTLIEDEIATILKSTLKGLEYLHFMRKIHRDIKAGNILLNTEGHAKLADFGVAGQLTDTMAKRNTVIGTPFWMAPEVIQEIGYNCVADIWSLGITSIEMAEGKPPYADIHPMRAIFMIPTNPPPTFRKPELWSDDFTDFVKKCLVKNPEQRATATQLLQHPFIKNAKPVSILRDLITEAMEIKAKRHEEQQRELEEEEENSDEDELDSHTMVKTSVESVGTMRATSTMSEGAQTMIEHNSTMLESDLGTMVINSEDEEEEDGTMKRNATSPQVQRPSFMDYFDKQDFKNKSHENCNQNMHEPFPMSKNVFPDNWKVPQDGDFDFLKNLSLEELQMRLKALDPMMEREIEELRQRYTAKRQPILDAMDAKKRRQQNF
Chain of UniProt Q9UPZ9 (whole entry, looked up): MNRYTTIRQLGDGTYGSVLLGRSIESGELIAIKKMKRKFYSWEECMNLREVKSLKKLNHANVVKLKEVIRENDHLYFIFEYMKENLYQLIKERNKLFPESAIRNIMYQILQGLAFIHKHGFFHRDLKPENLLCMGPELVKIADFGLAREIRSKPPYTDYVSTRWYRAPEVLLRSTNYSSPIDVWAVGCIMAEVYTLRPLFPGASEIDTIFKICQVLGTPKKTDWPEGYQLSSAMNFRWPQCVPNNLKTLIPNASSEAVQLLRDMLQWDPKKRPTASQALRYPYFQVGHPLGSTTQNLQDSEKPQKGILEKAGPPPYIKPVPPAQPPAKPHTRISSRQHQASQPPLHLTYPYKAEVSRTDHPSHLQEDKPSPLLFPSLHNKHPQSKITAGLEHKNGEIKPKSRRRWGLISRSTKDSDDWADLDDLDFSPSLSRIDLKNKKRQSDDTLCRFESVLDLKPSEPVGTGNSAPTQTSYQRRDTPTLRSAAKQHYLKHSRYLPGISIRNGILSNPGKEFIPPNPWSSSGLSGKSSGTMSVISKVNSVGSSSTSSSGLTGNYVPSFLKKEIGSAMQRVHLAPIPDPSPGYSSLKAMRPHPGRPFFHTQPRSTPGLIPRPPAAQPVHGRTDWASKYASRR

Block 1 — technique: protein binding microarray; form: double-stranded DNA, one strand shown; medium: in vitro; concentration: not given; reference: not given; direction: higher = stronger binding
Target: Histone acetyltransferase KAT6A, winged helix 1, GST fusion (KAT6A, Homo sapiens, UniProt Q92794, residues 1-85)
Setting: 8-mer, flanks averaged, mean of 2 arrays, mostly near background
Residues (chain): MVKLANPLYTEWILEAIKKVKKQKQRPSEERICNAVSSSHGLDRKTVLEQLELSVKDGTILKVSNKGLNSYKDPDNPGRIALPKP
With `GACCCATC` the E-score was -0.0101.
`TACCTTCA` has an E-score of -0.137.
With `CAGTCATC` the E-score was -0.146.
The E-score of `GTTCGACA` is reported as -0.145.
`CATATACC` has an E-score of 0.0936.
The E-score of `ATTCCGTA` is reported as 0.121.
`CTCCCGAC` has an E-score of 0.268.
`GATACGGA` has an E-score of 0.164.

Block 2 — technique: competition with immobilised ligand; concentration: 1 µM
SMILES: Cc1noc([C@H]2C[C@@H](c3ccc(C(F)(F)F)cc3)CN(C(=O)N3CCS(=O)(=O)C3)C2)n1
The remaining binding was 87% (PRKCQ (Homo sapiens, UniProt Q04759); cell-free assay).
NTRK2 (Homo sapiens, UniProt Q16620); cell-free assay — remaining binding: 83%.
STK3 (Homo sapiens, UniProt Q13188); cell-free assay — remaining binding: 100%.
The remaining binding was 91% (COQ8A (Homo sapiens, UniProt Q8NI60); cell-free assay).
CILK1 (Homo sapiens, UniProt Q9UPZ9); binding — remaining binding: 62%.
It gave 85% for remaining binding (Insulin receptor (INSR, Homo sapiens, UniProt P06213); cell-free assay).
For RIOK1 (Homo sapiens, UniProt Q9BRS2); cell-free assay: remaining binding read 100%.
SLK (Homo sapiens, UniProt Q9H2G2); cell-free assay — remaining binding: 98%.
KIT (Homo sapiens, UniProt P10721); cell-free assay — remaining binding: 100%.

Block 3 — target: OGT, full length, His-tagged (human); technique: phage display, sequencing; medium: in vitro; concentration: 1 µg OGT; reference: input library; direction: higher = stronger binding; starting sequence: peptide; VAYPNSYMPKYQIST
Setting: single substitutions, 15-mer displayed peptide, unchanged parent 6.14
With `Y7W` the fold enrichment was 0.789 fold.
With `Y7G` the fold enrichment was 0.479 fold.
For `S6Q`, the fold enrichment was 10.3 fold.
`Q12R` has a fold enrichment of 0.0395 fold.
With `I13V` the fold enrichment was 0.679 fold.
`Q12N` gave a fold enrichment of 0.667 fold.
`T15W` has a fold enrichment of 12.7 fold.
`S6H` gave a fold enrichment of 4.1 fold.

Single results of other studies — read-out: enzyme activity; action: inhibitor; concentration: 0.5 µM; reference: control
Target: Homeodomain-interacting protein kinase 1 (HIPK1, Homo sapiens, UniProt Q86Z02)
Chain of UniProt Q86Z02 (whole entry, looked up): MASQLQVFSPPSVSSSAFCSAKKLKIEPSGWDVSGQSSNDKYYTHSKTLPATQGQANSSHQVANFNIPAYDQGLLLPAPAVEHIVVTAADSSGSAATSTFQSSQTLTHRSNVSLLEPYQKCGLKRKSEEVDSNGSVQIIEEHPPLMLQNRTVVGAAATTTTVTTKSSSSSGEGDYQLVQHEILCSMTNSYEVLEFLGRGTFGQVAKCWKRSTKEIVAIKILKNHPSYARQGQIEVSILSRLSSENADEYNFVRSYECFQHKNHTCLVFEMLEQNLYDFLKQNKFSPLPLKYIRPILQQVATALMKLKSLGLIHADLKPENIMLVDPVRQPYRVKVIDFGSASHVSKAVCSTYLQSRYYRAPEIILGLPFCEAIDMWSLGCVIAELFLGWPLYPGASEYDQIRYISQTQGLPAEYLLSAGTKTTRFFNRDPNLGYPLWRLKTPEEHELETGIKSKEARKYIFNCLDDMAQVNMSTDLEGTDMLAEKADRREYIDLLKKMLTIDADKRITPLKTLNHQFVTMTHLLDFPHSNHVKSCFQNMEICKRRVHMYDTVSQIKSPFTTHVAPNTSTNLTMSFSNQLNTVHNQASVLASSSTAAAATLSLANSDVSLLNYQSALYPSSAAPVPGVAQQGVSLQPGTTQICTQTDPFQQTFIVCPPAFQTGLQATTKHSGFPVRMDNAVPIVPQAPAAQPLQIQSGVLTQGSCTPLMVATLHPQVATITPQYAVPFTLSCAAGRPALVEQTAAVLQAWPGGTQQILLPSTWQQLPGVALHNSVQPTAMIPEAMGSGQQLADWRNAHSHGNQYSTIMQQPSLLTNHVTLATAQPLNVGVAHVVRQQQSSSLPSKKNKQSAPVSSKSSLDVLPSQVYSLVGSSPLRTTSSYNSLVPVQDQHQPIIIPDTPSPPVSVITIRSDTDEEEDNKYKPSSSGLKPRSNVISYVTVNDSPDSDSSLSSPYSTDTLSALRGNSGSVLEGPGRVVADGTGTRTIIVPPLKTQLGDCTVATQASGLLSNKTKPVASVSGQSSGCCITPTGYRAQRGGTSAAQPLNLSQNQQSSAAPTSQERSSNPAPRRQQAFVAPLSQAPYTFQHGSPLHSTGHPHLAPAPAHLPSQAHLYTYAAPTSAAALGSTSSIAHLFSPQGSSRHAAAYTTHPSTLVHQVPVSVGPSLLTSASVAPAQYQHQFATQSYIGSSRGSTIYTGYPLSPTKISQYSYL
For `Cn1c2ccccc2c2c3c(c4c5ccccc5n(CCC#N)c4c21)CNC3=O`, the remaining activity was 81.1%.
`O=C(CCCc1ccc(-c2ccccc2F)cc1)Nc1ccc(O)cc1` gave a remaining activity of 105%.
